Published values pooled from the literature.
Numbered parts are unrelated; each lists some results of a single study.

Sample 1
Target: RNA binding protein fox-1 homolog 2, RRM domain, GST-SBP tag (RBFOX2, Homo sapiens, UniProt O43251-10, residues 100-194)
Method: RNA Bind-n-Seq
Molecule type: RNA
Matrix: in vitro
Concentration: 365 nM
Notes: natural RNA segment, single round, ends assumed
Baseline: no-protein control
Direction: higher = stronger binding
Residues (chain): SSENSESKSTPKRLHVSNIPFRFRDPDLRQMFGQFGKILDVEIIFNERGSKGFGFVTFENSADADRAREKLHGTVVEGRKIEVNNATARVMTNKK
Under “RBNS enrichment (R)”, `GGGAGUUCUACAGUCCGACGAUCGGGAGUUCUUUCUAACUAGCCAUCACACCUGUAGCUUUAGUUGCUUUGUGUGGCUUCUGGCCUAGCUUUUCAGAUGAGCCGCCUGGAUUUUUACCUGGCCUGUUCUGAUAUGGAAUUCUCGGGUGCCAA` is recorded as 0.196.
Under “RBNS enrichment (R)”, `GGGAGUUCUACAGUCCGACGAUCCCUCCGUGCUGUCAGUGUGGUGUGCUUUCUGCAUGGUUAUAUACUACUAGUAACUUUAUCAAAUUUCAAAUUACAUGGUAAAAGAUCUGUAAAGGCUGCAUCCAUGUUAGUGGAAUUCUCGGGUGCCAA` is recorded as 1.07.
`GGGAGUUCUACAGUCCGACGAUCGCUGUGAGGACACUCACCUUGUUCUGGCUUCAGCUGCUAGCCUACCCACAUCUCAGCGCUUUCCCCUUUUUUACCACUUAGACUUAAAGCAGGUGUCUUAAUUUACUCAAUGGAAUUCUCGGGUGCCAA`: “RBNS enrichment (R)” 0.573.
`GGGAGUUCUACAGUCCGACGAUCAUCUCUGUUGAAGGCUUUUGAUCCUUUUGAGAAAUAAAGAUCUGAAAGAAAUGGCAUAAUCUUAAAACUUGGUAAGUUUUUGUGGCUGUGUAAUCUCUUCAUUAUUAUAUUGGAAUUCUCGGGUGCCAA` — result for “RBNS enrichment (R)”: 0.511.
`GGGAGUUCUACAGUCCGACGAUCAGUGGGUAGAGCGUCUGCCAGACUCCUGGCCUGGUGUGCCUGGGUAGAAUUACACGAUAAGCAAUGGUCAGACUUUCCUUCUGUGGAUCCUUAUGCCAAUUCAGCUACUAUGGAAUUCUCGGGUGCCAA`: “RBNS enrichment (R)” 0.405.
`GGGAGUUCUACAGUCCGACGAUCGAAAAGGAAACACACCCCAAGGCAAGAAUGAGGAGGCAUGAUGCUAAGGAGGACAACUAUGAGGUAAAGCCAUCCCCAGACUGACAGCUCUGCCUUUAUCUUGCCUCUGGUGGAAUUCUCGGGUGCCAA`: “RBNS enrichment (R)” 14.1.
For `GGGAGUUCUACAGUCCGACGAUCUGAGUACACCACUACACGUUGGGUAAAAGCAGGUGGGGCCUUUCUGGUUGGAUUAGGCACCCUUCAUGCCUGCUACCAGGAACUCUCAGAUCUGCUUGCCCCAAACAAAUUGGAAUUCUCGGGUGCCAA`, “RBNS enrichment (R)” read 0.377.
`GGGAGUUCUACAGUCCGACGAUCUCCAGAGCUGAGCCUGACGUCUGCUCUGAAGAAUGCUUAGAAGGUUCCCAGACACCAGAGCCAGAUGUCCCCCACCACCGGUCAGGACCUCCUUGAGGUGCACAAGCACGUGGAAUUCUCGGGUGCCAA` — result for “RBNS enrichment (R)”: 1.57.
`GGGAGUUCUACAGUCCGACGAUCUGGCACAGAUCUUUGUCCCAAGCCUUCCUACUAUUCUUGCCUUAUUCUUAGUAUGCGUUGCAUCGGGGAUUUUAGACCAGGCUGCCUCUGAAAUGGUUAUUUGCAGCCCAUGGAAUUCUCGGGUGCCAA` — result for “RBNS enrichment (R)”: 3.24.

Sample 2
Target: PABPC1L2, full length, GST fusion (mouse, UniProt A0ABA7IW68)
Method: RNAcompete
Molecule type: RNA
Matrix: in vitro
Concentration: 20 nM
Notes: 7-mer, probes averaged, single round
Baseline: mean of 7-mers
Direction: higher = stronger binding
Construct (chain): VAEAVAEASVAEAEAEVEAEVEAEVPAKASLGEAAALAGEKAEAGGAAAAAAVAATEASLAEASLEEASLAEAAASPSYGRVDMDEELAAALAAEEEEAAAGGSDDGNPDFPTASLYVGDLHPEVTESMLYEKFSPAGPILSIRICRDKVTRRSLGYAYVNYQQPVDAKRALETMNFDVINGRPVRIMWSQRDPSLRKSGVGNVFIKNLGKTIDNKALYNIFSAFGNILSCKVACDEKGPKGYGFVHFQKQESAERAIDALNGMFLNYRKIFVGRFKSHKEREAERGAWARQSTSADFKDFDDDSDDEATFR
With `AGGCUAC` the 7-mer Z-score was -0.0101.
`GGUAACG` has a 7-mer Z-score of -0.126.
With `UGAACUC` the 7-mer Z-score was -0.226.
The 7-mer Z-score of `AGAAACA` is reported as 3.32.
The 7-mer Z-score of `UGAUAAA` is reported as 2.05.
`UUCGUUG` has a 7-mer Z-score of -0.487.
For `UGCACUU`, the 7-mer Z-score was -0.148.
`GGAGCUA` gave a 7-mer Z-score of 0.0533.
`UCCAGUG` gave a 7-mer Z-score of -0.188.
With `CACCCUA` the 7-mer Z-score was -0.2.
With `UAUGUAA` the 7-mer Z-score was 0.211.
`ACUGGUU` gave a 7-mer Z-score of -0.284.
The 7-mer Z-score of `AGAAGCA` is reported as 0.0152.
With `UUUCACA` the 7-mer Z-score was -0.291.
`GCGCGCG` has a 7-mer Z-score of -0.327.
With `UUUCCGC` the 7-mer Z-score was -0.431.
`UGCGCUA` has a 7-mer Z-score of -0.135.
`CAGAUCC` gave a 7-mer Z-score of -0.0246.
`UCUCCAG` has a 7-mer Z-score of -0.306.
`CUAGCUC` gave a 7-mer Z-score of -0.311.
For `GCUGGUU`, the 7-mer Z-score was -0.202.

Sample 3
Target: Hepatocyte nuclear factor 3-alpha (Foxa1, Mus musculus, UniProt P35582, residues 1-468, full length assumed)
Chain of UniProt P35582 (whole entry, looked up): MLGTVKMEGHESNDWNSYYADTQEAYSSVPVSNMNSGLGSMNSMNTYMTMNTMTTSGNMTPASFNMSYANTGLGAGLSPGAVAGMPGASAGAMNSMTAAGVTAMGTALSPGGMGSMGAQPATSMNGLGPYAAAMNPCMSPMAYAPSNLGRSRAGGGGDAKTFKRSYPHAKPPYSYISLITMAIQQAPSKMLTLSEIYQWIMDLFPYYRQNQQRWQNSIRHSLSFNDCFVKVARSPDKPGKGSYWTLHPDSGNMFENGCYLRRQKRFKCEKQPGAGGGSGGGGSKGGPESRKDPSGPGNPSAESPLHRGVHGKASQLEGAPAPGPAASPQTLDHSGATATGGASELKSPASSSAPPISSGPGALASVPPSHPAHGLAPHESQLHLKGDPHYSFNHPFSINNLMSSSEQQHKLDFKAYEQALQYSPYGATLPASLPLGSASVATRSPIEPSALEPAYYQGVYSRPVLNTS
Method: EMSA with sequencing
Molecule type: double-stranded DNA, one strand shown
Matrix: in vitro
Concentration: 10 and 20 nM
Notes: whole designed probe, mean of two concentrations, ends assumed
Baseline: negative control set to 0
Direction: higher = stronger binding
`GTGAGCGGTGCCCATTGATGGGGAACGTAAGGACCTCAATTTATTTTTTTCCCTAAGAGCTAATGAATTTTCCCAGTATCACCCACTGAGCCGTCCTCCCCTCTTTGTGATGCCACGTTAGATTACCTTGTGCTGACTCATATGTTCTGCAACATTCAGCTATTTGTCAATTCTTATGCCAGTACTTCCACTGTTACCATCATCAATTTAAAGATTACTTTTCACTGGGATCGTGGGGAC`: “normalised bound fraction” -0.0251 ratio.
For `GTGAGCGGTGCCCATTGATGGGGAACATCTTCCCCCTCTTCCTTGCCCCACCAGCTCACCTACGGGGGTTATTTGCACAAAGGAAAATAAATAAAGCCGGCATTCGTTAACCCTCTTCACGCGCATACTGCTGTTTGCTCTGCATGAATCATGGTCCTTACGCGACGCCAGGCTCCGGGAGAGCAAAGCACCGTGTCAGGCGCATGATCCGGGCTCGCCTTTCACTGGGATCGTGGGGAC`, “normalised bound fraction” read 0.387 ratio.
`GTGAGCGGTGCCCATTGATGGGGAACAATGAGCTAAGATTCCAACTTAAAAAATGTAAGAATAAACCTGGTGTATCATTCCCAAAGAAAAAGAGCAGTTTAGAAATAATAAGAGCACAAAAATGACATAGAAAAGAAAGACACAGTAGAGAAGATCAACAAAACCAAGAACTGGTTCATAGAAAAATAGCAATAAAATAGACTTCAGGCAAAATTATCCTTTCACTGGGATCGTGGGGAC`: “normalised bound fraction” 0.0609 ratio.
For `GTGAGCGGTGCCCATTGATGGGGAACGACAGTACATGTTTTAGGATTTTTGGACCACACAGTCTCTGTCACAATGACTCAGCTTTGCCATTGTAGCGTGCAAACAGCCACAAACCATATGCAAACAAAGAGCGTCTGGTTGTATGCCAATAAAACTTTATTTACAAAAGCAGGAGGACAGTGGAGTTGGCTTGCAGACAGTCATTTGCAGAGCCCTGATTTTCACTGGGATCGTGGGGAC`, “normalised bound fraction” read 0.443 ratio.
`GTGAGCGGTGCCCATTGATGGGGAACCCCTTAACCTACTCCTAAATCCTCTTTCCTTTTCCTTTCTAAATATCCTTTCGTGCTGTGAAGGGAAGAATGGAGGTGGGTCTTATTGCTACTTATTGACACATATCAGGTTTAGCTACACAATATGTTTGTAATTAAAAGCTTCAGCAAGAATATTCTGCTCCTTTCCTTTGAGGATTTGCAGAGCACAGGCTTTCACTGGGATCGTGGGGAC` — result for “normalised bound fraction”: 0.0719 ratio.
Under “normalised bound fraction”, `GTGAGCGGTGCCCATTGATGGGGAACGCAGACATTGGGCCCTACGTGGCACCTGGCTACTGTGCATGGTTGCAGGTCAGGGCAGGCCGGGCCACAGGGCAGGGCCACCCTCCCATTCCCATGTTTACACTGAGCATTTCCTCTGCCTGTGTCTCTTGGGCTGGGGTCTGTGATACAAGTCCGGGAGGCCAGAGACGCCCACGGACAGTGCGTGGGGCTTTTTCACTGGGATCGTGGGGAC` is recorded as 0.273 ratio.

Sample 4
Target: RING finger protein unkempt homolog, zinc fingers 1-6, SBP tag (UNK, Homo sapiens, UniProt Q9C0B0, residues 30-357)
Chain of UniProt Q9C0B0 (30-357, looked up): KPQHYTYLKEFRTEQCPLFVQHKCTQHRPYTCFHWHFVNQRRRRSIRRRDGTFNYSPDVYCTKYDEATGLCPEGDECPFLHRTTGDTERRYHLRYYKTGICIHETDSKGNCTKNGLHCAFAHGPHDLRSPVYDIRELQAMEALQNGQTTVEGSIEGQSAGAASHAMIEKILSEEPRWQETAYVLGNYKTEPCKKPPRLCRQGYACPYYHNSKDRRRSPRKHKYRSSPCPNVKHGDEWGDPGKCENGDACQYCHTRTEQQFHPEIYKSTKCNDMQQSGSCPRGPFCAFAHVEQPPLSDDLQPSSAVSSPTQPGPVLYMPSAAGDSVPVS
Method: RNA Bind-n-Seq
Molecule type: RNA
Matrix: in vitro
Concentration: 100 nM
Notes: RNA with constant flanks, vertebrate orthologous sites, ends assumed
Baseline: input RNA pool
Direction: higher = stronger binding
`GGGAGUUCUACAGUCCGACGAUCACAUUAUGGGUUACUCUCAUUUCUGUAGCAGAUAGAACAUUUUGCAAAACAUGUAUACACCUAGCUAAGCUGAGUAUAAUAUAUUUUUAUUAGACUGUAAAUAAAUACUCUUCUGCAUUGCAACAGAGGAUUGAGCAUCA` has a bound/input enrichment of 0.518 ratio.
`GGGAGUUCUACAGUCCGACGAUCUCCCCGUUACCCCUAAAGUAGACCAUUUUUUAAAUUGUGUUGCCACCACUUCUAAAAAUUUAGCAAUAUUAGAAUAGGAUACUAGUGAAGUAAGAAAUUUUGCUUGUUGUUUUGCAAACCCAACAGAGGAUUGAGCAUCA` gave a bound/input enrichment of 5.07 ratio.
`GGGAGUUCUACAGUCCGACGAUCCAACGCCAUGGUGGACGGCUCAGAGCUGAGGAAAGUGCGCUCCAACUCCAGAGUGUACCACCGAUACUUUCUGCUGGAUGCUGAUAUGCAGUCUCUUAGGUGGGAGCCCUCUAAAAAGGACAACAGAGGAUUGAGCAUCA` has a bound/input enrichment of 0.428 ratio.
With `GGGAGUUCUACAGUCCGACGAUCCAUGUCCUUGUUACUGUGAUAUUUAAAACAUGCACAGUACUCAUUUUUCCCAAAUGAUUCUAGUAAUUGCCUAGAAUUAUCUUUUCUCUUACCUGUUAUUUAUCAAUUUUUCCCAGUAUUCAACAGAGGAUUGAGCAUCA` the bound/input enrichment was 1.03 ratio.
The bound/input enrichment of `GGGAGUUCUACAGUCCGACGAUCAUAUUGUAUGUAGAGACAAAUUUUCAUUGACCCCAUUGUGAAAUUCCCUAGCAAUUUAUUUAGAAUCUUAAUUUUUCUAAUUGAAGUUCACUGUGUUAGUCAUUUUUAGUAUAAUUAAAACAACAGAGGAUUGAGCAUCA` is reported as 3.78 ratio.
`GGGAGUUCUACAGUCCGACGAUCGGAGCAGCAUAGGCUGUUCAUGCUUUGGGAAAAUGAGCUUUGCUUUUUUAAAUAUUUAAAUAGGAUACUUUUAUAUGAUGGGUGCUUUGAGUGUGAAUGCAGCAGGCUCCAUUUCUGAGGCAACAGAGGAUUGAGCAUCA` has a bound/input enrichment of 0.991 ratio.
For `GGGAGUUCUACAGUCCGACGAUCCAGGGAGAAGAGAUCACAAACUCAAAGAAAAACUAUGAAAGAGUUCUAAUAGUUAAAAGCCAGGAAAGAUUAGGACAAUUUUACAAAUGAGCAGUCAAAAAGAAAAGAACAGAAAAAGCCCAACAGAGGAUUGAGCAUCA`, the bound/input enrichment was 0.731 ratio.
`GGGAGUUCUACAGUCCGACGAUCAUUCAAACCUGUGGUACCAUGGCCUCAUGUUGAAGGAGUAGAAGUGGACUUAGAGUCUAUUAGAAGAAAAAACAAGGCUAAGAAUGAACAAGAGCAUCAUGCUGGAGGAGACUCCCAGAACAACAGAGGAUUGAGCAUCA` has a bound/input enrichment of 0.478 ratio.
The bound/input enrichment of `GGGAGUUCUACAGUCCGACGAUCGUGGGGAUGAGGGUGGGAUGGGAAAGGGAUGUAUGGAUGUUACUGGCAUUUUUAAGUGUUUUAGAGUUUUUUGGGGUUUGGGGUGGUUUUUUUUUCCUUGUUUUCCUUUUUUCCUUUUAACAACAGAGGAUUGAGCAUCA` is reported as 2.36 ratio.
For `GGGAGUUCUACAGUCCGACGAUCUCUUUUUUUUUGCACAUGACAGUGUUUGUAUUGAGGACCUUCCAAGGAAGAGGGGUGCUGUAGCAGUGGUGCCUGGGUGCCUGGCCUCCAGUGUCCCACCUCCUUCACCACCCCACUUGGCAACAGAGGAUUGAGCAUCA`, the bound/input enrichment was 0.279 ratio.
`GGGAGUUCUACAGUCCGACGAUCACGAAAGGCCAAAUUCCCUCCUCCCUUCUACUGCUUCUACCAACUGGAAGCACAGAAAACUAGAAUUUCAUUUAUUUUGUUUUUAAAAUAUAUAUGUUGAUUUCUUGUAACAUCCAAUAGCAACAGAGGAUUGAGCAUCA` gave a bound/input enrichment of 0.773 ratio.

Excerpt of the above (sample 2):
`ACUGGUU` gave a 7-mer Z-score of -0.284.
The 7-mer Z-score of `AGAAGCA` is reported as 0.0152.
With `UUUCACA` the 7-mer Z-score was -0.291.
`GCGCGCG` has a 7-mer Z-score of -0.327.
With `UUUCCGC` the 7-mer Z-score was -0.431.
